Published values from different studies.
Numbered parts are unrelated; each lists some results of a single study. Values joined by “and” are separate records of one study, mostly repeats; a detail may differ.

Series 1 — cell line: mouse MPNST tumor cells; method: high-content immunofluorescence imaging; item: nuclear SOX9; concentration: 10 µM; time: 12 h; notes: mean of 2 replicates; baseline: DMSO control; direction: higher = more nuclear SOX9; quantity: nuclear SOX9 intensity
CNC(C)CCC=C(C)C (centres unmarked): 92.8 % of DMSO
CC(C)(C)C(=O)OCC(=O)[C@H]1CC[C@H]2[C@@H]3CCC4=CC(=O)CC[C@]4(C)[C@H]3CC[C@]12C: 98.2 % of DMSO
NCc1ccc(S(N)(=O)=O)cc1: 79.4 % of DMSO
C#CCN(C)Cc1ccccc1: 94.2 % of DMSO and 114 % of DMSO
CC[C@H](NC(=O)c1c(C)c(-c2ccccc2)nc2ccccc12)c1ccccc1: 111 % of DMSO

Series 2 — cell line: HuT78; concentration: concentration not given; notes: unit not given; baseline: vehicle; quantity: mRNA level
SMILES: CC1=C(/C=C/C(C)=C/C=C/C(C)=C/C(=O)O)C(C)(C)CCC1
item: CCR4: 0.724 and 0.854 and 0.533
item: IL2RG: 1.4 and 1.67 and 1.64
item: IFNG: 6.66 and 6.53 and 6.65
item: GATA3: 0.626 and 0.509 and 0.587
item: IL12RB1: 2.56 and 3.08 and 1.77

Series 3 — Structure (SMILES): C=CCc1ccc(O)c(-c2ccc(O)c(CC=C)c2)c1; read-out: chloride current; quantity: normalized current
ANO1 del476-501/F628A: Anoctamin-1 (ANO1, Homo sapiens, UniProt Q5XXA6, del476-501/F628A)
ANO1 del476-501: Anoctamin-1 (ANO1, Homo sapiens, UniProt Q5XXA6, del476-501)
TMEM16A (human) K603A/E623A; inside-out patch clamp; 10 µM, membrane voltage 40 mV: 0.23
ANO1 del476-501/F628A; whole-cell voltage clamp; 100 µM, concentration-response at -40 mV, together with: 4 µM Ca2+: -0.0671
ANO1 del476-501; whole-cell voltage clamp; 10 µM, wild type, I-V at 80 mV, together with: 4 µM Ca2+: 0.24
Anoctamin-1 (ANO1, Homo sapiens, UniProt Q5XXA6, del476-501/E649A/R541A); inside-out patch clamp; 10 µM, membrane voltage 40 mV: 0.223
ANO1 del476-501; whole-cell voltage clamp; 30 µM, wild type, I-V at -60 mV, together with: 4 µM Ca2+: -0.0427
ANO1 del476-501/F628A; whole-cell voltage clamp; 1 µM, concentration-response at -100 mV, together with: 4 µM Ca2+: -0.805

Series 4 — method: Incucyte 3D growth; concentration: 30 µM; direction: higher = more growth; quantity: spheroid area
Compound: CC(C)(C(=O)O)[C@H](NC(=O)Cc1cccc(I)c1)c1ccc2oc(=O)[nH]c2c1
PC-9; 60 h: 4.96e+08 a.u. and 4.68e+08 a.u. and 4.65e+08 a.u. and 4.88e+08 a.u. and 4.76e+08 a.u. and 4.75e+08 a.u.
NCI-H358; 270 h: 1.23e+07 a.u. and 1.18e+07 a.u. and 1.1e+07 a.u.
MEL-JUSO; 366.52 h: 4.53e+07 a.u. and 5.64e+07 a.u. and 4.23e+07 a.u. and 4.47e+07 a.u. and 3.53e+07 a.u. and 4.21e+07 a.u.
MEL-JUSO; 78.52 h: 1.52e+07 a.u. and 1.19e+07 a.u. and 1.43e+07 a.u. and 1.35e+07 a.u. and 1.21e+07 a.u. and 1.3e+07 a.u.

Series 5 — organism: Sarcocystis neurona; read-out: parasite growth; concentration: concentration not given; notes: second screen; baseline: untreated; quantity: log2 fold change
CC(C)C[C@H](NC(=O)[C@@H](COC(C)(C)C)NC(=O)[C@H](Cc1ccc(O)cc1)NC(=O)[C@H](CO)NC(=O)[C@H](Cc1c[nH]c2ccccc12)NC(=O)[C@H](Cc1cnc[nH]1)NC(=O)[C@@H]1CCC(=O)N1)C(=O)N[C@@H](CCCNC(=N)N)C(=O)N1CCC[C@H]1C(=O)NNC(N)=O: 0.19
CC(CN1c2ccccc2Sc2ccccc21)N(C)C.Cl (centres unmarked): 0.51
C[N+]1(C)CCCC(OC(=O)C(O)(c2ccccc2)c2ccccc2)C1.[Br-] (centres unmarked): 0.2
CC[N+](C)(CC)CCOC(=O)C(O)(c1ccccc1)C1CCCCC1.[Br-] (centres unmarked): 0.33
C#C[C@]1(O)CC[C@H]2[C@@H]3CCC4=CC(=O)CC[C@@H]4[C@H]3CC[C@@]21C: 0.27

Series 6 — read-out: cell-free assay; method: competition with immobilised ligand; concentration: 1 µM; quantity: remaining binding
Structure (SMILES): N#Cc1ccc(Nc2ccc3[nH]c(=O)[nH]c3c2)c(Cl)c1
FLT1 (Homo sapiens, UniProt P17948): 100%
PIP4K2B (Homo sapiens, UniProt P78356): 74%
NEK4 (Homo sapiens, UniProt P51957): 100%
EPHB2 (Homo sapiens, UniProt P29323): 70%
CAMK1 (Homo sapiens, UniProt Q14012): 86%
RIPK4 (Homo sapiens, UniProt P57078): 89%
TNNI3K (Homo sapiens, UniProt Q59H18): 65%
ROCK2 (Homo sapiens, UniProt O75116): 100%
KIT (Homo sapiens, UniProt P10721, D816H): 99%
Tyrosine-protein kinase JAK3, JH1 (JAK3, Homo sapiens, UniProt P52333): 100%
FER (Homo sapiens, UniProt P16591): 100%
MAP2K6 (Homo sapiens, UniProt P52564): 80%
DAPK3 (Homo sapiens, UniProt O43293): 92%
RET (Homo sapiens, UniProt P07949, M918T): 100%
CAMK2D (Homo sapiens, UniProt Q13557): 100%
EGFR (Homo sapiens, UniProt P00533, L858R/T790M): 79%
PRKG2 (Homo sapiens, UniProt Q13237): 87%
Tyrosine-protein kinase ABL1, phosphorylated (ABL1, Homo sapiens, UniProt P00519): 100%
NEK6 (Homo sapiens, UniProt Q9HC98): 100%
WEE2 (Homo sapiens, UniProt P0C1S8): 100%
FLT3 (Homo sapiens, UniProt P36888, D835V): 100%
PAK1 (Homo sapiens, UniProt Q13153): 85%
SGK2 (Homo sapiens, UniProt Q9HBY8): 65%
PIK3C3 (Homo sapiens, UniProt Q8NEB9): 100%
Macrophage colony-stimulating factor 1 receptor, autoinhibited (CSF1R, Homo sapiens, UniProt P07333): 100%

For quick reference, copied from above (series 2):
item: CCR4: 0.724 and 0.854 and 0.533
item: IL2RG: 1.4 and 1.67 and 1.64
item: IFNG: 6.66 and 6.53 and 6.65
item: GATA3: 0.626 and 0.509 and 0.587
